Measured values collected from several papers.
Parts stem from different laboratories: compare values within a part only.

Sample 1
Target: Sal-like protein 4, full length isoform B (SALL4, Homo sapiens, UniProt Q9UJQ4-2, residues 1-616)
Method: universal PBM
Molecule type: double-stranded DNA, one strand shown
Sample: in vitro
Tested at: not given
Notes: 8-mer, flanks averaged, mean of replicates
Direction: higher = stronger binding
Measurement: E-score
TCCAGGGA: -0.284
AGCTCCAT: 0.0388
TCGTCAAA: 0.0838
GCCTGCCA: -0.208
CGGAGCTA: -0.154
ATCAGATC: 0.0108

Sample 2
Target: RING finger protein unkempt homolog, zinc fingers 1-6, SBP tag (UNK, Homo sapiens, UniProt Q9C0B0, residues 30-357)
Chain of UniProt Q9C0B0 (30-357, looked up): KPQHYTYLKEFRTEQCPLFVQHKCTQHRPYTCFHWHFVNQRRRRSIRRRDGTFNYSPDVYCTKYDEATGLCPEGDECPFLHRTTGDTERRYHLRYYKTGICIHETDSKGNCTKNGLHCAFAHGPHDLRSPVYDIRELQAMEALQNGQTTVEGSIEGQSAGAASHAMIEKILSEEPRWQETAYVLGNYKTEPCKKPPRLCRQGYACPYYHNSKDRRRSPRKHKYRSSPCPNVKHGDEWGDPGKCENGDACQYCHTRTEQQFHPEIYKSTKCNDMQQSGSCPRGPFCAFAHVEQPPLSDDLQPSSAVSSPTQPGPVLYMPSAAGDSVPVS
Method: RNA Bind-n-Seq
Molecule type: RNA
Sample: in vitro
Tested at: 100 nM
Notes: RNA with constant flanks, vertebrate orthologous sites, ends assumed
Baseline: input RNA pool
Direction: higher = stronger binding
Measurement: bound/input enrichment
Constant ends, left off below: GGGAGUUCUACAGUCCGACGAUC … CAACAGAGGAUUGAGCAUCA
UGAGUGAAUGAGAGUGAGUGUGUUGUGGUAAAAAAAAAACUUAAGAACCAUCAGGGAGAAAAGUUACAAAUACCAAGAGCCAGAUGGAUUAAAAGUGAAGAUGAAGAGGUCAUUGAAACU: 0.394 ratio
GGGUGGCCGGUGGGGGAAUCCCAUGCCCUGGCCUUGCCUCCCCUCCCUGCCACCCGCUCCUAGUUAUUUUUUUUUUUAACCACCAUGUGAUUAAGGUCGGCACUGCCUCCCCCGACCCGC: 2.96 ratio
AGGAAAUGCUGGCUGCAAACCCUCAGGAUCGUCCAGAUGCUUUUGAACUAGAACUCAGAUUAGUACAAAUUGCAUUUAAAGAUAGCAGCUGGGAAACGUGACACAUAUAUUAUUUGCAAA: 1 ratio
AAAUAUACUUCAUGCCAUGGACUCCAUAUCGCACUGAUACUUUGAUAGAGUAUGCUUCUUUAGAGGACUUCCAAAAUGGACGACAACAGACAACUUACAAACUUCCAAAUCGAGUGGAUG: 1.15 ratio
CUCUCUUAGUGAUAGUAUUCCAUCUGUAGCAGAUUCACACUCGAGUCAUUUUUCUGAGUUUAGUUGCUCAGAUAUGGAAAGUAUGAAAACCUCCUGUAGCCAUGGUUCCAGUGACUAUCA: 0.577 ratio

Sample 3
Target: RNA binding protein fox-1 homolog 2, RRM domain, GST-SBP tag (RBFOX2, Homo sapiens, UniProt O43251-10, residues 100-194)
Method: RNA Bind-n-Seq
Molecule type: RNA
Sample: in vitro
Tested at: 365 nM
Notes: natural RNA segment, single round, ends assumed
Baseline: no-protein control
Direction: higher = stronger binding
Measurement: RBNS enrichment (R)
GGGAGUUCUACAGUCCGACGAUCUCUUUAUUCAGGGAGUGAGACAUGGACUAAUUGGUAUCGAUUCCCUGGAUAGCUCGCUUGGAUGAAUUGAUGGUGUUUAGCAGUUUUUAUAUACUUCCUCCGGGUCUCUAUGGAAUUCUCGGGUGCCAA: 0.719
GGGAGUUCUACAGUCCGACGAUCGGCCUCCAGACCCCCUCAAUAGACACUGACUAAAGUCAGGCUGGAGUCAUGAGGGUAGUGGGCUAAGUCGAGGGUCCAGCCUCUUCUGCCAGGAAGCCCUUCUUGCUUUUUGGAAUUCUCGGGUGCCAA: 0.362
GGGAGUUCUACAGUCCGACGAUCCACCCCAUCCUCAAUAACAACCAUCGUAAGAAUGACUGAACCAUUACUCCAGCUGCCUCCCAGAUUAAUGCAUAAAGCCAAGGAACUACCCCGCUCCCUGCGCUAUAGGGUGGAAUUCUCGGGUGCCAA: 0.858
GGGAGUUCUACAGUCCGACGAUCAGAAAUUCAAGAAAAAAUGACAUUAAAUCAUCUGUGCAUUUCAUAUACAGGAGAGUUAUCUCCUUCCGAAGUUUCUGGUUCUUUUCUUUAUUCGUCCCCUCCCUCUGCUUUGGAAUUCUCGGGUGCCAA: 0.452

Other studies, line by line
PhoQ, residues 284 288 289 292 302 303 NLMGRA  fold induction (PhoP, residues 12 14 15 18 19 NNFVT (Escherichia coli, UniProt P23836); Sort-seq, refers to: YFP reporter; E. coli; PhoQ-PhoP variant library, together with: 10 µM Mg2+; baseline: high Mg2+ state, higher = stronger signaling): 16.2

Some of these lines once more (sample 3):
GGGAGUUCUACAGUCCGACGAUCCACCCCAUCCUCAAUAACAACCAUCGUAAGAAUGACUGAACCAUUACUCCAGCUGCCUCCCAGAUUAAUGCAUAAAGCCAAGGAACUACCCCGCUCCCUGCGCUAUAGGGUGGAAUUCUCGGGUGCCAA: 0.858
GGGAGUUCUACAGUCCGACGAUCGGCCUCCAGACCCCCUCAAUAGACACUGACUAAAGUCAGGCUGGAGUCAUGAGGGUAGUGGGCUAAGUCGAGGGUCCAGCCUCUUCUGCCAGGAAGCCCUUCUUGCUUUUUGGAAUUCUCGGGUGCCAA: 0.362
